# Published values gathered from unrelated publications.
# A part holds a random share of what one study measured. Changes are numbered by the printed parent chain.

# Block 1 — target: CCNF, cyclin fold, Cln2 fusion (human); method: yeast growth competition, sequencing; medium: yeast; setting: strong parent motif; relative to: not given; reading: higher = stronger binding
# Starting sequence: PKN2 docking peptide (human); VSAVRKLDFSDTM
Variant,normalised enrichment score
R5T,0.789
R5G,-0.345
T12H,7.01
L7K,0.373
S10Y,7.17
T12P,6.99
R5S,-0.125
S2C,7.25
V4T,5.72
K6S,6.44
D11C,7.35
F9T,0.377
D11R,7.6
T12N,7.1
D11P,7.46
L7V,1.23
T12L,7.25
L7F,0.226
R5M,1.48
A3N,2.24
D8V,8.16
D8L,8.8
V4I,6.92
S2G,7.11
A3M,5.47

# Block 2 — method: RNA Bind-n-Seq; molecule type: RNA; medium: in vitro; concentration: 1 µM; setting: whole 134-nt RNA, ends assumed; added: 150 mM KCl; relative to: input library; reading: higher = stronger binding
# Target: Ras GTPase-activating protein-binding protein 1, C-terminal RGG region (G3BP1, Homo sapiens, UniProt Q13283)
# Chain of UniProt Q13283 (whole entry, looked up): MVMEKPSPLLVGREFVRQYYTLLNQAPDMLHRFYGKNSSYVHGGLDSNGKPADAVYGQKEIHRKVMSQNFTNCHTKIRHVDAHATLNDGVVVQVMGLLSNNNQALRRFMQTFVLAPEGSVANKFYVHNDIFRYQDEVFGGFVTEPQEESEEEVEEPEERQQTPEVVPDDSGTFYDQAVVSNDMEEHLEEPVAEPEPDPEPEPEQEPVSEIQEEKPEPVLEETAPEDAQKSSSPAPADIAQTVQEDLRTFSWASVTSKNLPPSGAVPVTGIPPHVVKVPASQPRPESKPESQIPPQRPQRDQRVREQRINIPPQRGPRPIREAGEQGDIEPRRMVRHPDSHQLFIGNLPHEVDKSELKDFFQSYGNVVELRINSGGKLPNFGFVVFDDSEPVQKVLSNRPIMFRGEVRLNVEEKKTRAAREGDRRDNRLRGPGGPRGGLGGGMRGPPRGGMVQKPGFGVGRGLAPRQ
# Constant ends, left off below: GGGAGUUCUACAGUCCGACGAUC … UGGAAUUCUCGGGUGUCAAGG
Oligonucleotide,log2 enrichment
CCUCAAGUCCUGUGCUACACAUCGUAUGUACCGAAUCGGUGGAGGUUUUUGGAAAGUAUUAUGUUACGCCGUUCGGAUCUGCACUUCCAG,-0.513
UGUUGAUGCUGUAAUUGCUGAACUUAAAAAGCAGUCUAAACCUGUGACCACCCCUGAAGAAAUUGCACAGGUAAGGACUUAACAUGUUAC,0.303
ACCAUGCAGGUGGGCAUCUUUGGGAAGUGGGGCAAGGGGGGGAUAGGGAGGGGGGUAACACUUUGGGAACAGGUGGUCCCCGGUCGUUUC,1.53
UCCUGUGCUACACAUCGUAUGUACCGAAUCGGGGAAAAAAGGAAAAAAGGGGAAAAAAGGAAAGUAUUAUGUUACGCCGUUCGGAUCUGC,-1.26
UCCUCAAGUCCUGUGCUACACAUCGUAUGUACCGAAUCGGUGGUGGUGGGGAAAGUAUUAUGUUACGCCGUUCGGAUCUGCACUUCCAGC,-0.45
CAAGUCCUGUGCUACACAUCGUAUGUACCGAAUCGGAAAGGGAAAGGGAAAGGGGAAAGUAUUAUGUUACGCCGUUCGGAUCUGCACUUC,-0.913
AGUCCUGUGCUACACAUCGUAUGUACCGAAUCGGGGUUUUGGUUUUGGGGUUUUGGGAAAGUAUUAUGUUACGCCGUUCGGAUCUGCACU,-0.689
CUGUGCUACACAUCGUAUGUACCGAAUCGGCCCCCCCGGGCCCCCCCGGGCCCCCCCGGGGAAAGUAUUAUGUUACGCCGUUCGGAUCUG,-2.32
ACUGAUGAGAGCCUGAGGAGCCAUUUUGAGCAAUGGGGAACGCUCACGGACUGUGUGGUAAGAUUUGGAAGGGACAAAGCAGUAAAACAG,-0.629
UCCUGUGCUACACAUCGUAUGUACCGAAUCAAAUUUUUUUAAAUUUAAACCCCCCCAAAAAAGUAUUAUGUUACGCCGUUCGGAUCUGCA,-0.719
UCAAGUCCUGUGCUACACAUCGUAUGUACCGAAUCGGUUUUUUUGGAGGUUUGGAAAGUAUUAUGUUACGCCGUUCGGAUCUGCACUUCC,-1.22
GCAGGAAGUAAAAACAAAUGGAAAUGCUUCGGAUAGUGGCAGGGGUAAAGGUUGCUAAGGAAAGGGUGGGAUGGGAGUGGGUAAAGAGUU,1.79
AGUCCUGUGCUACACAUCGUAUGUACCGAAUCGGUUUUUUUGGAAAAAAAGGAAAGGAAAGUAUUAUGUUACGCCGUUCGGAUCUGCACU,-2.46
GUCCUGUGCUACACAUCGUAUGUACCGAAUCGGUUUUUUUGGAAAAAGGAAAAAAAGGAAAGUAUUAUGUUACGCCGUUCGGAUCUGCAC,-1.65

# Block 3 — method: RNA Bind-n-Seq; molecule type: RNA; medium: in vitro; concentration: not given; relative to: input RNA pool; reading: higher = stronger binding
# Target: RING finger protein unkempt homolog, zinc fingers 1-6, GST-SBP tag (UNK, Homo sapiens, UniProt Q9C0B0, residues 30-357)
# Chain of UniProt Q9C0B0 (30-357, looked up): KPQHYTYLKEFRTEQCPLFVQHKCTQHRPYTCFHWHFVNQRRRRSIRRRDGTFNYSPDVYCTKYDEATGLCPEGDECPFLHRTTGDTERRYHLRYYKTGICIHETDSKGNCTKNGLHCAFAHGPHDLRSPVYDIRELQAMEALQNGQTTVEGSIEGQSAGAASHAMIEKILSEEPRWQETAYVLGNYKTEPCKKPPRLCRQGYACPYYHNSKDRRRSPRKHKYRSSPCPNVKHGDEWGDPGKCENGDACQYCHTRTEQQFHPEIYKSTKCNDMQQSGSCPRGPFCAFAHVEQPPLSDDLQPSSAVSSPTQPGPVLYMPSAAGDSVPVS
# Setting: RNA with constant flanks, human-mouse chimeric sites, ends assumed
# Constant ends, left off below: GGGAGUUCUACAGUCCGACGAUC … CAACAGAGGAUUGAGCAUCA
Oligonucleotide,bound/input enrichment
UUAAUCCCCUUCGUUGCUCCCCCACUUCUCAUGGUAAUAACAAAGUCUUAUAUCCCCGUCCUAGCUUUCACUCAGAUGGCUUAUGGAGCCGGUUUCCUAUCUUUCUUGGGAGGGAUCAGA,0.297 ratio
CUUAAUGUUAAUAUUUUUAAAGGAAGCAAGCUAAAAUGUCUGCUUUUGGUACAACACGCAUUAAUAAAAGGUUAAGUAAGUUUUGUUACUGAAGUACUAUUUAACAUCUCAGAAAAAAAC,0.134 ratio
AUUGUUGAAGCGAAUCCACUUUUAGAAGCAUUUGGAAAUGCGAAGACUGUUCGCAACAAUAAUAGCAGUCGAUUUGGAAAAUUUGUAGAAAUUCAUUUCAAUGAAAAGAGUUCGGUUGUU,0.346 ratio
UGUGCAUAUGAUGCUUGAGAUGGUUUUUGCAAAAGCAGAAAUCGCUGCAAGGUAAUCCUAAUAGAGACAAGCGGUAUUUUAAACCUUUGAAAUAAAUGGAUGUAACUGUACCUUGGUACA,0.334 ratio
GCCACCAGAUCCCAGAAACAUGACCCUUGCAGCCUAUAAAGAGAAGAUGAAGGAGCUCCCGCUGGUGUCUCUGUUCUGCUCCUGCUUCCUGGCCGAUCCCCUGAAUAAGUCGUCCUACAA,0.317 ratio
AUGGUUGUGUCUCUUGAGAUCUAAAAACAAGAUGACUUUUCCUGGCACAUAUUCCAAAGCAAAGACUUUGUUGCCUGCUGCUUAUUGUCUAAUUUACAGGGAUAUUUAAUUUUGUAAGGU,0.293 ratio
CGCUUGGAUGAGGCGGGUGUUACUGAUGAAGUGCUAGAUUCUGCCAUGCAAGCCUUCUUACUAGAAAUCAUUGUUAAACAUGGGGAGCCGGCACCUUAUUUAUGUAACAAAGAUCCGUUU,0.163 ratio
CUGUGUGUGCUGAAUAAAUGGCUUGUAAGAACUGUCCCCAAGUUGUAAACCCAUGCUGUUAUUAUAGUUGCUGCAAAAUGUUCUUCCUGAUAUUGAUUUUAUUUGUUAACUGAAGGUCUC,0.67 ratio
ACAGUUAUAUUGUUGAGUUUCAUUUUCAUAUAUUCUUGUAGUGUCUGCUUGCCUGUGACUUCUGGUAAAAUAAGACUAGCCUUUGAAUUAGCAUGCUCAUGGUAUUUAACAUUUUCUAAA,18.1 ratio
GGCUGCUGGUGACUGUCCUGGAGUGGCUGGAGUUCCCGCCGGAGCGCGGCCAGACUAAUUUUAGAAAAUGCCAAGUAGGAAGUUUGUCGAUGGUGAAGUGGUCAGAGGUCGAUGGCCUGG,2.57 ratio
AGAGAUAAGACAUCCAGGAACAUGCGAGGGUCACGGAUGAAUGGGUUGCCUAGCCCCACUCACAGCGCCCACUGUAGCUUCUACCGAACCAGAACCUUGCAGGCAUUGAGUAAUGAGAAG,0.26 ratio

# Block 4 — method: DHFR PCA, deep sequencing; medium: yeast; added: (+)-ABA 0.11 µM; relative to: wild-type fitted maximum; reading: higher = stronger binding
# Target: ABI1, truncated, D143A, DHFR fusion (Arabidopsis thaliana)
# Setting: methotrexate growth selection, single substitutions
# Starting sequence: PYL1, truncated, DHFR fusion (Arabidopsis thaliana); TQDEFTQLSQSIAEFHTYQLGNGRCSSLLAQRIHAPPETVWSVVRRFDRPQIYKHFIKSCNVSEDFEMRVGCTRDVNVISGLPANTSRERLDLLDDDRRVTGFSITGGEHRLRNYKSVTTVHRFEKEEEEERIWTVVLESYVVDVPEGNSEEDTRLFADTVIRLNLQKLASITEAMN; partner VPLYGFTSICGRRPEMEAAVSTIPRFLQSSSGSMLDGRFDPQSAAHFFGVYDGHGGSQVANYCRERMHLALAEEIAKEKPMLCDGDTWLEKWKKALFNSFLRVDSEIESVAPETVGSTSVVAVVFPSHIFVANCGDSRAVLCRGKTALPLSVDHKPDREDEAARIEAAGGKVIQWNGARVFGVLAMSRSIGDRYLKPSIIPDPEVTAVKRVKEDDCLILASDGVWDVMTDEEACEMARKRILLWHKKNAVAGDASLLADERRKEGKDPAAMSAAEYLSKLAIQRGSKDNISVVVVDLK
Variant,relative binding score
Y53W,55.1%
G148F,-13.9%
V70S,7.89%
E174L,2.33%
T73F,52.5%
E109S,9.11%
R24Y,5.78%
E152L,7.6%
V40P,-6.45%
K126E,38.9%
Q10S,45.2%
A170K,62.7%
V40I,-0.598%
Y115V,-7.47%
I172M,5.87%
V136G,1.28%
E128Y,20.2%
D159F,-15.5%
I52F,10.5%

# For quick reference, copied from above (block 2):
Oligonucleotide,log2 enrichment
UCCUCAAGUCCUGUGCUACACAUCGUAUGUACCGAAUCGGUGGUGGUGGGGAAAGUAUUAUGUUACGCCGUUCGGAUCUGCACUUCCAGC,-0.45
CAAGUCCUGUGCUACACAUCGUAUGUACCGAAUCGGAAAGGGAAAGGGAAAGGGGAAAGUAUUAUGUUACGCCGUUCGGAUCUGCACUUC,-0.913
AGUCCUGUGCUACACAUCGUAUGUACCGAAUCGGGGUUUUGGUUUUGGGGUUUUGGGAAAGUAUUAUGUUACGCCGUUCGGAUCUGCACU,-0.689
CUGUGCUACACAUCGUAUGUACCGAAUCGGCCCCCCCGGGCCCCCCCGGGCCCCCCCGGGGAAAGUAUUAUGUUACGCCGUUCGGAUCUG,-2.32
ACUGAUGAGAGCCUGAGGAGCCAUUUUGAGCAAUGGGGAACGCUCACGGACUGUGUGGUAAGAUUUGGAAGGGACAAAGCAGUAAAACAG,-0.629
UCCUGUGCUACACAUCGUAUGUACCGAAUCAAAUUUUUUUAAAUUUAAACCCCCCCAAAAAAGUAUUAUGUUACGCCGUUCGGAUCUGCA,-0.719
UCAAGUCCUGUGCUACACAUCGUAUGUACCGAAUCGGUUUUUUUGGAGGUUUGGAAAGUAUUAUGUUACGCCGUUCGGAUCUGCACUUCC,-1.22
GCAGGAAGUAAAAACAAAUGGAAAUGCUUCGGAUAGUGGCAGGGGUAAAGGUUGCUAAGGAAAGGGUGGGAUGGGAGUGGGUAAAGAGUU,1.79
AGUCCUGUGCUACACAUCGUAUGUACCGAAUCGGUUUUUUUGGAAAAAAAGGAAAGGAAAGUAUUAUGUUACGCCGUUCGGAUCUGCACU,-2.46
